Results gathered from unrelated publications.
A part holds a random share of what one study measured.

Series 1
Target: RNA binding protein fox-1 homolog 2, RRM domain, GST-SBP tag (RBFOX2, Homo sapiens, UniProt O43251-10, residues 100-194)
Method: RNA Bind-n-Seq
Form: RNA
Matrix: in vitro
Tested at: 365 nM
Notes: natural RNA segment, single round, ends assumed
Relative to: no-protein control
Direction: higher = stronger binding
Constant ends, left off below: GGGAGUUCUACAGUCCGACGAUC … UGGAAUUCUCGGGUGCCAA
Construct (chain): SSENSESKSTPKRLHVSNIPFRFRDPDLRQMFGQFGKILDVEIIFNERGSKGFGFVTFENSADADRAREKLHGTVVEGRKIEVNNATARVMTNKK
`UUAAAGUCUACCUUUUAACAAUCUUUACCCCAAACCUAAAGAUUCUAGGGGUCACUUAUCUCUAUUACGUAAUCUAACUGGAAUAAUUUCCUAGAAUUCUUACUAGUGAA`: “RBNS enrichment (R)” 0.524.
For `AGAGAAAAGGAUUGUGGGAAACUCCAGGACUCUUCCCACCGCCUCCCAGCGCCUGCCUGCUGGGGCUGCCUGCAUGCCUCCCCUGCACCUGGGGGUACCCGCAUCCACUU`, “RBNS enrichment (R)” read 29.4.
`GCCCUAGGCACUGAUAGUUGCCUUUUCUUCCCCUCCUGUAAGAGUAUUAACAAAACCAAAGGACACAAGGGUGCAAGCCCCAUUCACGGCCUGGCAUGCAGCUUGUCCUU` — result for “RBNS enrichment (R)”: 0.484.
`AAAAUGUAAUAAGAAAUGCAUAUGACUAGAUAGCAAUAGUGUUUUUUUUAGAUGGUAUGCUCUUGAUUGAAAUAUAUUCUCACUUUUACCAGGUUAAACAUUUGGAAUCU` — result for “RBNS enrichment (R)”: 0.33.
`CUCUGUUCUCCCUGGGAAAGGUCAUCAUCUCUGUUCAGAUGGGGAAGUUGAGGCCCAGAGAAUUUAAAGCACAUGUUCAUUUCUGUUGUCAUGGAUACAAAGCUAGGUUU` — result for “RBNS enrichment (R)”: 0.44.
`AGCUCAGUGAUGUUCCAGCUCCUGGCUAGGCUGCUCAGCCACUCAGCUAGACAAAAGAUCUGUGCCCUGUGUUUCAUCCCAGAGCUUGUUGCCAGAUCACAUGGCUGGAU` — result for “RBNS enrichment (R)”: 0.65.
`CCUGCCACUUUAUUGAGGUGUUAUUAGCACUUUUGUUCAUAAUUCAUAAUUUUGUAAUAAUCUUUAUUUUCCCUUAGCAAACCAAGUAAAAAUAAACUAGUAAAAGAUUA` — result for “RBNS enrichment (R)”: 0.415.
For `CCACCAGUCACACAUUUGGAAUGUAGAUUCCAAAGACAGAAAAGAUAAAGGGUUUCCCAAGGGUAGACACCUUGACCAUCCUGAAGUAUGGGUGCUGUACCUGUUCCAGA`, “RBNS enrichment (R)” read 0.351.

Series 2
Target: RING finger protein unkempt homolog, zinc fingers 1-6, GST-SBP tag (UNK, Homo sapiens, UniProt Q9C0B0, residues 30-357)
UniProt Q9C0B0, sequence (30-357, looked up): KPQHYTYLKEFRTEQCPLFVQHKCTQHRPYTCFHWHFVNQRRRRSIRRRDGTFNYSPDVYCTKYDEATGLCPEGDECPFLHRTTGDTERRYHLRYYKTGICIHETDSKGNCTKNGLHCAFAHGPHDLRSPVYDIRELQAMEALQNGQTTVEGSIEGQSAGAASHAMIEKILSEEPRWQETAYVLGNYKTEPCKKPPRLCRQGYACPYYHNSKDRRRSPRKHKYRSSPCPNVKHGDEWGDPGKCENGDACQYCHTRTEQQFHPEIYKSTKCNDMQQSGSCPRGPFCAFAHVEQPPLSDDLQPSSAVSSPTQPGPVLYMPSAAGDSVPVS
Method: RNA Bind-n-Seq
Form: RNA
Matrix: in vitro
Tested at: not given
Notes: RNA with constant flanks, ends assumed
Relative to: input RNA pool
Direction: higher = stronger binding
Constant ends, left off below: GGGAGUUCUACAGUCCGACGAUC … CAACAGAGGAUUGAGCAUCA
`AACAUUUCUACUCUACCAGAGAGUCUUUUAUCCAGUCUUGUAAAAUUGAAUAGCUUGACCUCCGCCCGAAAUUGCUUCCAGUUAUAUCCAGUGGGAGGUCCAUCUCAGUUUUCCACCAUU` gave a bound/input enrichment of 0.209 ratio.
`GUUUCUUUCCUGAAAGAAGUAGAAUCUCCUUAUGAGGUCCAUGAUUAUAUCAGGGCCUAUUCCGGAGAUACUUCUGAGGCCAAGGAGUUUGCCAAGCAGUUCCUUGAGCGCCGUGCCAAA` has a bound/input enrichment of 0.15 ratio.
For `AUUCAGAAUCACUUUGUGGAUGAGUAUGACCCUACGAUAGAGGACUCCUACAGGAAACAAGCCGUAAUUGAUGGAGAAACCUGUCUCUUGGAUAUUCUCGACACAGCAGGUCAAGAGGAG`, the bound/input enrichment was 0.102 ratio.
With `GGCGGCAGCCCUGGUUAGCUGAUCACACCCAGGUGUCAUGAUGCCAACAUCCUAGGUUCCCCGUUUUUGGUUUUGGUAACUUAGUGCGUAGCUCCAGGUGCCGCAUCUACUCGCCAAUCU` the bound/input enrichment was 0.174 ratio.
With `UUUCAGCAACUGGUCAAUUUUUCAGAAGGAGGACCGGGCUCUAAUUCCACUGGCAGUGAAGCCGCAUCAAUGUCCUCUCAACUUCCAGAUACACCUAACAGCAUGGUAGCCAGUCCUAUU` the bound/input enrichment was 0.203 ratio.
`CCUGAGGUGCGGCACCACUGUCCCAACACUCCCAUCAUCCUAGUGGGAACUAAACUUGAUCUCCGGGAUGAUAAAGACACGAUCGAGAAACUGAAGGAGAAGAAGCUGACUCCCAUCACC` has a bound/input enrichment of 0.295 ratio.
With `GGACUGGUUAUGACAGAGGCACAUCUUCCCAGUCAGACUUUGGAACAGGGCCUUGAUGUUUCCGAAAUUAUGAGAAACAUUCAUAUAUUUGUGUCCCGAUACCUCUAUAAUCUCAACAAU` the bound/input enrichment was 0.234 ratio.
`AGCACAACACCAGCUAAGCUCAGGAACCCUUGCACAAGUGAACAGAACUGCACCAGCCCAUUCCGCUACAAAAAUGUGCUCAGUCUUACUAAUAAAGGAGAAGUAUUUAAUGAACUUGUU` gave a bound/input enrichment of 0.416 ratio.

Series 3
Target: Histone acetyltransferase KAT6A, both winged helices, GST fusion (KAT6A, Homo sapiens, UniProt Q92794, residues 1-181)
Method: protein binding microarray
Form: double-stranded DNA, one strand shown
Matrix: in vitro
Tested at: not given
Notes: 8-mer, flanks averaged, mean of 2 arrays, mostly near background
Relative to: not given
Direction: higher = stronger binding
Residues (chain): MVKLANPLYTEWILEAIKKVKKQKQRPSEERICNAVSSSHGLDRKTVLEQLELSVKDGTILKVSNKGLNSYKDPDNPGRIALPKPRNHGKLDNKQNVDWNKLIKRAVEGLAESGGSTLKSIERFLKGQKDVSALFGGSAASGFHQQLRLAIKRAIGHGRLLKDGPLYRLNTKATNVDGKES
With `GCCTAAGC` the E-score was -0.00775.
The E-score of `AAATTTGA` is reported as -0.0572.
`CATCGTGG` has an E-score of -0.0668.
The E-score of `ATTGCATC` is reported as -0.0808.
`CGCGCGCC` has an E-score of 0.394.
For `ATATGTAC`, the E-score was 0.0563.
With `ATATGGCA` the E-score was 0.042.
The E-score of `CCACATCA` is reported as -0.163.
`AGGTATCG` has an E-score of 0.0714.
With `ACGCCTTA` the E-score was 0.145.
`ACGATTCT` has an E-score of 0.0527.
With `TCCAATAA` the E-score was 0.104.
The E-score of `AGATCGCG` is reported as 0.243.
For `AACTAGGG`, the E-score was -0.24.
`CAGGACTA` has an E-score of -0.15.
For `GAAATCGA`, the E-score was 0.108.
`ATTTGCCA` has an E-score of -0.163.
For `ATTCCGCA`, the E-score was 0.109.
With `GCACCCGA` the E-score was 0.182.
With `CAACCGCC` the E-score was 0.114.
`AGTTTAGC` gave an E-score of -0.0673.
The E-score of `CTTTAGGC` is reported as 0.0498.
`ATAGGCAC` has an E-score of -0.092.
`ATGCACAG` gave an E-score of -0.0459.
The E-score of `CTCGCTGC` is reported as -0.0128.

Series 4
Target: Ras GTPase-activating protein-binding protein 1, full length (G3BP1, Homo sapiens, UniProt Q13283)
UniProt Q13283, sequence (whole entry, looked up): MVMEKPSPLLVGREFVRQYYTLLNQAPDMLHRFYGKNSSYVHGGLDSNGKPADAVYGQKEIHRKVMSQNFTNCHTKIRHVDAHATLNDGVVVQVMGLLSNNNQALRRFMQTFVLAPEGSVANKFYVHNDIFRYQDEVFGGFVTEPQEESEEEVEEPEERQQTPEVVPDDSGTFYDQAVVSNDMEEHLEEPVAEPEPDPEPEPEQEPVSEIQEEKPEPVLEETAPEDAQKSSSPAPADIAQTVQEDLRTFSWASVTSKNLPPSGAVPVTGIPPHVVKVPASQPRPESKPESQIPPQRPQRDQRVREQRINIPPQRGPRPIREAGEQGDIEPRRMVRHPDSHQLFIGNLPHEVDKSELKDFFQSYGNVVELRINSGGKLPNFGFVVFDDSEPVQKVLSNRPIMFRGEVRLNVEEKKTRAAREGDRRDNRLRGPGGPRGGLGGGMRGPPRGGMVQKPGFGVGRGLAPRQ
Method: RNA Bind-n-Seq
Form: RNA
Matrix: in vitro
Tested at: 200 nM
Notes: whole 134-nt RNA, ends assumed
With: 150 mM LiCl
Relative to: input library
Direction: higher = stronger binding
All molecules: 7-deaza-guanosine replaces G
Constant ends, left off below: GGGAGUUCUACAGUCCGACGAUC … UGGAAUUCUCGGGUGUCAAGG
`UGGCCCUGGUGGCAUCCGGGGAGGAAGAGGUGGCCUCAUGGAUCGUGGUGGUCCCGGUGGAAUGUUCAGAGGUGGCCGUGGUGGAGACAG` has a log2 enrichment of 0.619.
With `ACCAUGCAGGUGGGCAUCUUUGGGAAGUGGGGCAAGGGGGGGAUAGGGAGGGGGGUAACACUUUGGGCACAGGUGGUCCCAGGUCGUUUC` the log2 enrichment was -0.0501.
With `UGGGAGGUGGAUUUUGUUUAUUUUUUUAGCUCAUUUCCAGGGGUGGGAAUUUUUUUUUUAUAUGUGUCAUGAAUAAAGUUGUUUUUGAAA` the log2 enrichment was -0.0112.
With `UGGGAGGUGGAUUUUGUUUAUUUUUUUAGCUCAUUUCCAGGGGUGGGAAUGUUUUUUUAAUAUGUGUCAUGAAUAAAGUUGUUUUUGAAA` the log2 enrichment was -0.508.
The log2 enrichment of `UCCUGUGCUACACAUCGUAUGUACCGAAUCGGGGAAAAAGGGGUUUUUGGGGAAAGGGGAAAGUAUUAUGUUACGCCGUUCGGAUCUGCA` is reported as -0.119.
For `UGCAGACGGGGAACCUGCUGAACUGGGGCCGCCUGCGGAAGAAGUGCCCGUCCACGCACAGCGAGGAGGUGAGCGUGGCGACACUCGCCG`, the log2 enrichment was -1.68.
With `GUCCUGUGCUACACAUCGUAUGUACCGAAUCGGGGCCCCCGGCCCCCGGGCCCCCGGGAAAGUAUUAUGUUACGCCGUUCGGAUCUGCAC` the log2 enrichment was -1.83.
`UGUGUGACUUCCUUGGAGAGAAGAUUGCAUCUGUUUUGGGUAUCAGCACCCCAAAGUACCAAUAUGCCAUUGAUGAAUAUUAUCGGAUGA` has a log2 enrichment of -0.275.

Series 5
Target: TAR DNA-binding protein 43, full length, His tag (TARDBP, Homo sapiens, UniProt Q13148, residues 1-414)
Method: RNA Bind-n-Seq
Form: RNA
Matrix: in vitro
Tested at: 20 nM
Notes: 6-mer, flanks averaged, single round
With: 150 mM KCl
Relative to: input library
Direction: higher = stronger binding
`AUUGUC`: “6-mer enrichment (R)” 0.57.
For `GCCCAG`, “6-mer enrichment (R)” read 0.908.
`AAUUCC`: “6-mer enrichment (R)” 0.579.
For `UAUUUG`, “6-mer enrichment (R)” read 0.717.
`GGCCGU` — result for “6-mer enrichment (R)”: 1.45.
Under “6-mer enrichment (R)”, `UUCAGG` is recorded as 0.893.
Under “6-mer enrichment (R)”, `CUACAC` is recorded as 0.6.
Under “6-mer enrichment (R)”, `UUCACA` is recorded as 0.56.
`CGAUCA`: “6-mer enrichment (R)” 0.6.
For `UAUCGG`, “6-mer enrichment (R)” read 0.866.
For `CAAAAC`, “6-mer enrichment (R)” read 0.602.
`GUACCC`: “6-mer enrichment (R)” 0.681.
For `AUUUUA`, “6-mer enrichment (R)” read 0.666.
`CGCUGC` — result for “6-mer enrichment (R)”: 0.791.
Under “6-mer enrichment (R)”, `AUGUGU` is recorded as 1.16.
`CUUUAA`: “6-mer enrichment (R)” 0.588.
`CAGCAU` — result for “6-mer enrichment (R)”: 0.667.
`GCGUUU`: “6-mer enrichment (R)” 0.809.
`AAAUUC`: “6-mer enrichment (R)” 0.576.
`ACCAAU`: “6-mer enrichment (R)” 0.666.
`CGCCGG` — result for “6-mer enrichment (R)”: 1.36.
`CUCGAU` — result for “6-mer enrichment (R)”: 0.56.
Under “6-mer enrichment (R)”, `GGGCCG` is recorded as 4.03.
For `AGGCUU`, “6-mer enrichment (R)” read 0.703.

Some of these lines once more (series 3):
For `AACTAGGG`, the E-score was -0.24.
`CAGGACTA` has an E-score of -0.15.
For `GAAATCGA`, the E-score was 0.108.
`ATTTGCCA` has an E-score of -0.163.
For `ATTCCGCA`, the E-score was 0.109.
With `GCACCCGA` the E-score was 0.182.
With `CAACCGCC` the E-score was 0.114.
`AGTTTAGC` gave an E-score of -0.0673.
The E-score of `CTTTAGGC` is reported as 0.0498.
`ATAGGCAC` has an E-score of -0.092.
